Measurements gathered from unrelated publications.
Each numbered part is a random draw from the data of one study; scales do not carry over between parts.

Set 1
Target: RING finger protein unkempt homolog, zinc fingers 1-6, GST-SBP tag (UNK, Homo sapiens, UniProt Q9C0B0, residues 30-357)
Sequence of UniProt Q9C0B0 (30-357, looked up): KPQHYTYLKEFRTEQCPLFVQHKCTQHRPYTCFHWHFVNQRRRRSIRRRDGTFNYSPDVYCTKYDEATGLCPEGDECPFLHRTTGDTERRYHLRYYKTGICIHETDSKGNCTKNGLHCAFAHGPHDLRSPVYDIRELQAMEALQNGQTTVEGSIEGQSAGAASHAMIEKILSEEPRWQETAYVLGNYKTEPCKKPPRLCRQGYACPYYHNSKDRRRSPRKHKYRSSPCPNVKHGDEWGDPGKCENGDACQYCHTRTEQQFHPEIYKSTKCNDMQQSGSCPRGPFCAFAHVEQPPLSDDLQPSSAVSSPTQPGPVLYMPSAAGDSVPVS
Technique: RNA Bind-n-Seq
Molecule type: RNA
Medium: in vitro
Tested at: not given
Setting: RNA with constant flanks, human and mouse sites, ends assumed
Reference: input RNA pool
Direction: higher = stronger binding
All sequences stand within: GGGAGUUCUACAGUCCGACGAUC … CAACAGAGGAUUGAGCAUCA
Sequence	bound/input enrichment
GAAGAAGCCUGCUUCACUCUCCAGUACCUAAACAAAUUGUCCAUGAAACCAGAACCUCUGUUUAGAAGUGUAGGCAAUACUAUUGAUCCUGUCAUUCUUUUCCAAAAAAUGGGAGUAGGU	0.351 ratio
GCAGAAUAUGAGGAGAGUGUGGCCAAAGAAGACCAACCAGCAGUUCCAGGAGAGACUCAAGGUGACAGUUACUUUACUGGAAAGAAAACUAUUGAAACAGUGAAAGCAGCUGAGAGGAUU	0.326 ratio
CCUCCACCUAAUGCAGAUCCCAAUAUGAAGUUAUUUACAAUUCGGGGCACUCCACAGCAAAUAGACUAUGCUCGACAACUCAUAGAAGAGAAGAUUGGGGGCCCAGUAAAUCCUUUAGGG	1.49 ratio
AGACAAGGUGUUAAAACCAUAAGGCAGAGGUUGAGUCCAACAUCCAAUAAAAGUUCUCGCAAGUUAUUUGAUCAAGCCAACAAGCUCAAAAAGACCUGUUCUCAUCUUUUUACAGCCACA	0.228 ratio
AUAAAAUGUGUUUUGUGUUCCCAUUACUGCAGUAGGUGCUAGUGAGCAUAAGAUGCAUACAAUAGGGCUCCUGCCCUUCCCUGAGUUAGAAUGUGGUUCAGUACAUAUGUUUAGUAUGCA	0.908 ratio
GUAGGCUAUCCAGGAGACCCAGUUUAUUGGUUGGGAAAAUACAGAAAUGAAGAGUGUGACCCAGGUGGCUGUCUUCUUGAACUGACAACUCAGCUGACAAUAAUCAUGGGAGGAAAAGCA	0.192 ratio
UCCCAUGACCAGAGGACUCUGAUCACUGGCAUGGCUUCUGGUAGCAUUGUAGCUUUUAAUAUAGAUUUUAAUCGGUGGCAUUAUGAGCAUCAGAACAGAUACUGAAGAUAAAGGAAGAAC	9.13 ratio
UGGGAUUUGUAAGAAGAACCAUGAUCAGCAUCUUCUUUUAUUGUGUGAUACCUGUAAACUACAUUACCAUCUUGGAUGUCUGGAUCCUCCUCUUACAAGGAUGCCAAGAAAGACCAAAAA	0.111 ratio

Set 2
Target: RNA binding protein fox-1 homolog 2, RRM domain, GST-SBP tag (RBFOX2, Homo sapiens, UniProt O43251-10, residues 100-194)
Technique: RNA Bind-n-Seq
Molecule type: RNA
Medium: in vitro
Tested at: 365 nM
Setting: natural RNA segment, single round, ends assumed
Reference: no-protein control
Direction: higher = stronger binding
All sequences stand within: GGGAGUUCUACAGUCCGACGAUC … UGGAAUUCUCGGGUGCCAA
Construct (chain): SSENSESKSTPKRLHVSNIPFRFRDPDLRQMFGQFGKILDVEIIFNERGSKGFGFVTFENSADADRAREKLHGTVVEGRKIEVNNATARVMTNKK
Sequence	RBNS enrichment (R)
AGAACUGUGGCUUGUAACUCAAUGAUGCUAUAACUCCAGCACUGGAUCUUAAGUAUUCUGGAAUAUACCAGAUUGGUAGAACUACCAGACUUGGGUAUUUCUCAGUUAAC	0.891
UUUAAUUAUGCUUUUCCUCUAAAUAGCAACUUAAAUAUUUGCUAGACUUUGAAUCAUCGCUAUAUCAAGUAUCUAAAAUUUGGGAGGGUGAAUCAGUACACUGUGACCAA	0.384
UAAGAUGGCACCAGCAUCACUUUCCGUGUAGAGGCUGCUUUUCUUGGAGUUCAUGUGAAGGAAUGUCUUUUUAAAUAAUGCUACUCUGAUGCCAUAAUUUUCUAUGGCUC	0.268
AGCCUGAAGUGACGUCCACAGAACCCGCCCUUGUCUUUGUACAUCGUAUGUACACUGCAAUCAUUUCAUACUUUUGACUGGUCAGAAAAAAAAAACUAAUUGUGAUUUCU	1.44
UUUGGAAAUUUACAUCAUCCUCAAGUAAAAUAAAUAUCAGUUAAAUAUUGGAAGCUGUGUGUAAGAUUGAUUCAGCAUUCCAUGCACUUGCUUUAAAAUUUAGUCCUGUG	0.453
AACUACAGAGGGAUUAUGACAGGUCCUUGAGCCGCCUAACACUGGAUGACAUCGAACGUUUGGCCAGCCGCUUUCUACACCCUGAAGUGACUGAGGCUAUGGAAAAAGGG	0.93
UUGAACCGCAUCACCUUUCCUUGGCUUAAGCAUUCGUUACUAAUGGCAGGAAAGUCUUCCCUUCUAUAAGAUAUAUAUCUCUGUUAGCUUCAAGUAGGAAAUUUUAAUUU	0.889
CUCUCUCUGGCGCACUUUCCUGAAGCCUCUUAUUAACUCCCAUCUCCAGAAGCACCUCAACAAUGUCAGUGGCUGAGGCUGCACUCAGAGGGAUGACUGCUGGGGGUAGA	0.474
AGCUUGUACAUACUUUUUUAUGGAGCAUUACUUACGAUUUUUUAAGUAAAAUGUUUUGAAACCAAAACUCACUUGGAUAUUCAUUUAUUGAAGCACACGGGCAACCUUUC	0.922

Set 3
Target: Interferon regulatory factor 7, full length, phosphomimetic (IRF7, Homo sapiens, UniProt Q92985, residues 1-503, S101K/S471D/S472D/S475D/S476D/S477D/S483D/S484D/S487D)
Technique: protein-binding microarray
Molecule type: double-stranded DNA, one strand shown
Medium: in vitro
Tested at: 250 nM
Setting: 60-bp whole probe
Together with: salmon DNA 0.4 mg/ml
Reference: random background probes
Direction: higher = stronger binding
All sequences stand within: GCCTAGCAC … GTCTTGATTCGCTTGACGCTGCTG
Residues (chain): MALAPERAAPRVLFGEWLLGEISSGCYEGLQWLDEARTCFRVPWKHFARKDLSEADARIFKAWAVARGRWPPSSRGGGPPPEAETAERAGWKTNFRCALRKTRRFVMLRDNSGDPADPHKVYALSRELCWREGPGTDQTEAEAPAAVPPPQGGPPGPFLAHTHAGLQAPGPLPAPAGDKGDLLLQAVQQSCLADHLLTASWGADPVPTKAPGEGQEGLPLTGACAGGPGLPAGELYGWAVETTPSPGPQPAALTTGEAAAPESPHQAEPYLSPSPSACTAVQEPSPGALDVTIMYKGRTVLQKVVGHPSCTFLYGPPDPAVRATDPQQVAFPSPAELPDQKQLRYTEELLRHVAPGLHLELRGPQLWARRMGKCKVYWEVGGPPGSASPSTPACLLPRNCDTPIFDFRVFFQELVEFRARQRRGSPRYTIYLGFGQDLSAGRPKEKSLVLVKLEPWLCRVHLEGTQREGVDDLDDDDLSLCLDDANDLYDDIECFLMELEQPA
Sequence	log fluorescence [z-score]
TTAGATCTCACTTTCGATTAGTGCTAG	3.08
TTAGGTCTCGGTCTGGGTTAGTGCTAG	0.939
TTCGATATCGGGACTGGATTAGTGCTA	0.259
TTAGGTATCGACTCTCGGTTAGTGCTA	1.52
TTAGGACTGGACAATCGGTTAGTGCTA	-0.467
GACGGGTTCGGACTGGGGACGTGCTAG	0.18
TTAGATTTCCTTCTCCTTTAGTGCTAG	0.945
GGTAGGCGGGGCCCCTGGCCGTGCTAG	-0.362
GACGATATCTGTATCGAGACGTGCTAG	-0.00325
TTAGGTTTCCTTATCCTTCAGTGCTAG	3.01
TCAAATTTCCCTCTCCCACTGTGCTAG	0.705
GACGGTTTCGTCTATCGGGACGTGCTA	4.23
CAGGGTCTCGCTTCATCTCCGTGCTAG	2.83
CTTGTTTTACAATTTGCTTTGTGCTAG	1.21
TTTAGCAGACTGAGAGGAACGTGCTAG	-0.459
GACGATATCTGTTTCGAGACGTGCTAG	1.58
TCAGCTTGGTGTCTCTGACTGTGCTAG	-0.816
TTAGGTTTCGATTATCGGTTAGTGCTA	10.4
GACGATATCAGTTTCGAGACGTGCTAG	4.39
TTAGGACTCGGGTATCGGTTAGTGCTA	1.91
GACGATATCCTTATCCTGACGTGCTAG	-0.177
GACGGTATCGGCTTCGGGACGTGCTAG	-0.0563
CTCTACCTCGTCATAGTAACGTGCTAG	0.551
TCACATTTTCGTTTTTAACTGTGCTAG	7.25
CTTTATGTCCTGTCTACATGGGTGCTA	0.509

Set 4
Target: Ras GTPase-activating protein-binding protein 1, full length (G3BP1, Homo sapiens, UniProt Q13283)
Sequence of UniProt Q13283 (whole entry, looked up): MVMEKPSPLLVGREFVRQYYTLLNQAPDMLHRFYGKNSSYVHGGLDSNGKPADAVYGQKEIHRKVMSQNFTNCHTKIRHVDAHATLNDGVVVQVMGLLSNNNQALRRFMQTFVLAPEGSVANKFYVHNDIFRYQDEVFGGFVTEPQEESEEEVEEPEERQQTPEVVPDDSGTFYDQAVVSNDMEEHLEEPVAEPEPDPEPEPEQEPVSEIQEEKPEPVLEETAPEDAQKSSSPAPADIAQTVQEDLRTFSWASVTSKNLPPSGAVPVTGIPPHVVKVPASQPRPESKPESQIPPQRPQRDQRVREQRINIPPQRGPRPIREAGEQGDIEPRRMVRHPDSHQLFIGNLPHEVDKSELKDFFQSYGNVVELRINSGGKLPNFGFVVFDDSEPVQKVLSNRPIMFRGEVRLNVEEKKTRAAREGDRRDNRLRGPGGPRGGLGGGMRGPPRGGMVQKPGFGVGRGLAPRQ
Technique: RNA Bind-n-Seq
Molecule type: RNA
Medium: in vitro
Tested at: 200 nM
Setting: whole 134-nt RNA, ends assumed
Together with: 150 mM KCl
Reference: input library
Direction: higher = stronger binding
All sequences stand within: GGGAGUUCUACAGUCCGACGAUC … UGGAAUUCUCGGGUGUCAAGG
Sequence	log2 enrichment
CCUCAAGUCCUGUGCUACACAUCGUAUGUACCGAAUCGGUUGGUUGGUUGGGGAAAGUAUUAUGUUACGCCGUUCGGAUCUGCACUUCCA	-0.299
AAGUCCUGUGCUACACAUCGUAUGUACCGAAUCGGGCCCCGGCCCCGGGGCCCCGGAAAGUAUUAUGUUACGCCGUUCGGAUCUGCACUU	-1.62
GCAGGAAGUAAAAACAAAUGGAAAUGCUUCGGAUAGUGGCAGGGGUGGGGGUUGAUAAGGAAAGGGUGGGAUGGGAGUGGGUAAAGAGUU	1.13
AGUCCUGUGCUACACAUCGUAUGUACCGAAUCGGGGUUUUUGGGGAGGGGUUUGGGGAAAGUAUUAUGUUACGCCGUUCGGAUCUGCACU	0.328
AGUCCUGUGCUACACAUCGUAUGUACCGAAUCGGGUUUUUGGGUUUUUUUGGGUGGGAAAGUAUUAUGUUACGCCGUUCGGAUCUGCACU	-0.132
GUCCUGUGCUACACAUCGUAUGUACCGAAUCGGGAAAGGGUUUUUUUGGGUUUUUGGGAAAGUAUUAUGUUACGCCGUUCGGAUCUGCAC	-0.495
AAGUCCUGUGCUACACAUCGUAUGUACCGAAUCGGGUGGGUUUGGGUUUUUUUGGGAAAGUAUUAUGUUACGCCGUUCGGAUCUGCACUU	0.0417
UCCUGUGCUACACAUCGUAUGUACCGAAUCGGGGAGGGGUUUUUUUGGGGUUUUUGGGGAAAGUAUUAUGUUACGCCGUUCGGAUCUGCA	0.594
AGUCCUGUGCUACACAUCGUAUGUACCGAAUCAAAUUUAAAUUUUUAAAUUUUUAAAAAAGUAUUAUGUUACGCCGUUCGGAUCUGCACU	-1.75
UCCUGUGCUACACAUCGUAUGUACCGAAUCAAACCCCCCCAAAUUUAAAUUUUUUUAAAAAAGUAUUAUGUUACGCCGUUCGGAUCUGCA	0.313

Repeated from above (set 3):
Sequence	log fluorescence [z-score]
GACGGTTTCGTCTATCGGGACGTGCTA	4.23
TTAGGTTTCCTTATCCTTCAGTGCTAG	3.01
GACGATATCTGTTTCGAGACGTGCTAG	1.58
CTTTATGTCCTGTCTACATGGGTGCTA	0.509
